Measurements from different studies.
Numbered parts are unrelated; each lists some results of a single study. Several values in a cell are separate wells, animals, samples, runs or records.
Chain of UniProt Q8TDX7 (whole entry, looked up): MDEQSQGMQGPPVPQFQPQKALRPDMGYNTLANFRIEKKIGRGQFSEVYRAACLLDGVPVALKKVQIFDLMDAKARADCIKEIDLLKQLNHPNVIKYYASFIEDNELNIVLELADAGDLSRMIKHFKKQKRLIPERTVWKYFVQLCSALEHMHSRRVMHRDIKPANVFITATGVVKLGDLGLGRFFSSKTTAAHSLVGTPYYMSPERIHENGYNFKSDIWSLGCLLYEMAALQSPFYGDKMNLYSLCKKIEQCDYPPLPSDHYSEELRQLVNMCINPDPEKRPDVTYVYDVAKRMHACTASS
Chain of UniProt Q52WX2 (whole entry, looked up): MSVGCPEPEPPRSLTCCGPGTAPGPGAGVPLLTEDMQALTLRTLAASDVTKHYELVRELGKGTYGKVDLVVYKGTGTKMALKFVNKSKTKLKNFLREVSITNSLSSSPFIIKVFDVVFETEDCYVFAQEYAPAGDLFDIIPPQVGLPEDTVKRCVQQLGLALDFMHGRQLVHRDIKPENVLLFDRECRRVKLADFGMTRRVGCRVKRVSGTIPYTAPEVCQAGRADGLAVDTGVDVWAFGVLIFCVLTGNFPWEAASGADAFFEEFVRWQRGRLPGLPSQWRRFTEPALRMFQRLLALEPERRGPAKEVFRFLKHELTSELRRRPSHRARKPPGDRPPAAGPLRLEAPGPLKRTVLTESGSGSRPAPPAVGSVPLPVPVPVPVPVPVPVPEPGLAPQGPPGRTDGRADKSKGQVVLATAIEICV
Chain of UniProt Q8NFD2 (whole entry, looked up): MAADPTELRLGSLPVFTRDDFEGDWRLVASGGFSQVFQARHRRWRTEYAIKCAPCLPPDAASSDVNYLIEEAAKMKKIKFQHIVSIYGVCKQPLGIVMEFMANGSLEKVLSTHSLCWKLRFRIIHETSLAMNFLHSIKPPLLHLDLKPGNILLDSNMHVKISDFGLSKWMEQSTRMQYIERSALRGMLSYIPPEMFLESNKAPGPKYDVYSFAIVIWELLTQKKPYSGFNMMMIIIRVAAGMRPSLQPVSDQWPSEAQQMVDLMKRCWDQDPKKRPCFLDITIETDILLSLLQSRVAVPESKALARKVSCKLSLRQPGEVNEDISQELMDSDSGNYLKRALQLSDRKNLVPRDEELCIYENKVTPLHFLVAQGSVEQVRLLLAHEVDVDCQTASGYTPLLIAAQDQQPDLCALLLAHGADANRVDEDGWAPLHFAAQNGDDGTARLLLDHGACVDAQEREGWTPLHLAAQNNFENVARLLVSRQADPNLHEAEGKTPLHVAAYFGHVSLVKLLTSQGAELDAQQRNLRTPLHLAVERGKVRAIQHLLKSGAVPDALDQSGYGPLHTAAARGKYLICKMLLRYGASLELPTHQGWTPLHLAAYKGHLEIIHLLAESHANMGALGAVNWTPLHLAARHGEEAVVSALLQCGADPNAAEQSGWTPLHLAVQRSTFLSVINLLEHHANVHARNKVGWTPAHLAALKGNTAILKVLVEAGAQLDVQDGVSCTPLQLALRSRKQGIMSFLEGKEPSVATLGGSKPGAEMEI
Chain of UniProt P29597 (whole entry, looked up): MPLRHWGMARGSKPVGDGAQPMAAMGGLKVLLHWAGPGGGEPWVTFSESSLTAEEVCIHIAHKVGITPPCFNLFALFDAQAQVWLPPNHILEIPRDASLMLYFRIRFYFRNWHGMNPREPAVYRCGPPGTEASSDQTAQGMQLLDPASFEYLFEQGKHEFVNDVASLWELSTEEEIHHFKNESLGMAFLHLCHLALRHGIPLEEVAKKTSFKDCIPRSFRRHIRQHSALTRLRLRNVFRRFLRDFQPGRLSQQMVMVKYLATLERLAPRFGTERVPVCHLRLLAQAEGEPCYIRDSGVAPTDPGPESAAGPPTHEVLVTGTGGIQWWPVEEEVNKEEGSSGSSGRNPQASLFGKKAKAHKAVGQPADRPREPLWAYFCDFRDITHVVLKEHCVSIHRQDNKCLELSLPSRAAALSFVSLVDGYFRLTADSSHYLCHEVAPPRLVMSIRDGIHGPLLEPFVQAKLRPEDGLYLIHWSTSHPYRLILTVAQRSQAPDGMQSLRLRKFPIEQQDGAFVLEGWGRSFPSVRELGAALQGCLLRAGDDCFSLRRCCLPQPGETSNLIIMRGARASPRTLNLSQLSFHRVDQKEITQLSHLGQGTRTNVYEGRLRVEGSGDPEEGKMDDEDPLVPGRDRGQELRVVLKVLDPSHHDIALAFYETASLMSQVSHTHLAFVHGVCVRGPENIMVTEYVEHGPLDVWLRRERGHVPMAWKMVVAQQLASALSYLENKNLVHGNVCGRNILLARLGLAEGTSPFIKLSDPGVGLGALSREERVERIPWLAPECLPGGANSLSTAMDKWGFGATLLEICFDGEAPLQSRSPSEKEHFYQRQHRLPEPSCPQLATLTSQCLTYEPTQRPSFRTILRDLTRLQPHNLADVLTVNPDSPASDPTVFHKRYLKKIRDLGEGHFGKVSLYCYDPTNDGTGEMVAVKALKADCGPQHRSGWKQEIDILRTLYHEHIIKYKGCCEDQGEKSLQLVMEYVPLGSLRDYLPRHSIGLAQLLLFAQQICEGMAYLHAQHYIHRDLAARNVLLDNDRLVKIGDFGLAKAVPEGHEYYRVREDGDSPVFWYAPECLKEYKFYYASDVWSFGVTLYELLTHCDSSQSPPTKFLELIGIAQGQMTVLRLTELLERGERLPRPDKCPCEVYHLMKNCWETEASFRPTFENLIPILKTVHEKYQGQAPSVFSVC
Chain of UniProt Q9UBE8 (whole entry, looked up): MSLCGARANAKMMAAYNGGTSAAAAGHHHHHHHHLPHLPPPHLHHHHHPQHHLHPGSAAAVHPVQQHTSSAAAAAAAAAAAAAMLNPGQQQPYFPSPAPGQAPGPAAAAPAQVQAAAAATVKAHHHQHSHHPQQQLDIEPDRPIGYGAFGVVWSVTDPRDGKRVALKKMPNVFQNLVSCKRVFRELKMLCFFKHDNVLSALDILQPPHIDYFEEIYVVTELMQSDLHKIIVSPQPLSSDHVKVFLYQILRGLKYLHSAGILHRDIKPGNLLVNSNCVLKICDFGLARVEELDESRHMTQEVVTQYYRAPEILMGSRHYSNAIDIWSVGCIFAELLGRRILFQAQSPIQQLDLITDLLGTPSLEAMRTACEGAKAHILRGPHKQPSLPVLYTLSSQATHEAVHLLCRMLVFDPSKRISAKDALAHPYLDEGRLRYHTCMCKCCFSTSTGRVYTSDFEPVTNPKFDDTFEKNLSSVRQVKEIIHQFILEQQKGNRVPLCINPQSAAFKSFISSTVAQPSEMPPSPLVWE

Study 1
Target: Tyrosine-protein kinase ABL1, phosphorylated (ABL1, Homo sapiens, UniProt P00519, E255K)
Chain of UniProt P00519 (whole entry, unmodified, looked up): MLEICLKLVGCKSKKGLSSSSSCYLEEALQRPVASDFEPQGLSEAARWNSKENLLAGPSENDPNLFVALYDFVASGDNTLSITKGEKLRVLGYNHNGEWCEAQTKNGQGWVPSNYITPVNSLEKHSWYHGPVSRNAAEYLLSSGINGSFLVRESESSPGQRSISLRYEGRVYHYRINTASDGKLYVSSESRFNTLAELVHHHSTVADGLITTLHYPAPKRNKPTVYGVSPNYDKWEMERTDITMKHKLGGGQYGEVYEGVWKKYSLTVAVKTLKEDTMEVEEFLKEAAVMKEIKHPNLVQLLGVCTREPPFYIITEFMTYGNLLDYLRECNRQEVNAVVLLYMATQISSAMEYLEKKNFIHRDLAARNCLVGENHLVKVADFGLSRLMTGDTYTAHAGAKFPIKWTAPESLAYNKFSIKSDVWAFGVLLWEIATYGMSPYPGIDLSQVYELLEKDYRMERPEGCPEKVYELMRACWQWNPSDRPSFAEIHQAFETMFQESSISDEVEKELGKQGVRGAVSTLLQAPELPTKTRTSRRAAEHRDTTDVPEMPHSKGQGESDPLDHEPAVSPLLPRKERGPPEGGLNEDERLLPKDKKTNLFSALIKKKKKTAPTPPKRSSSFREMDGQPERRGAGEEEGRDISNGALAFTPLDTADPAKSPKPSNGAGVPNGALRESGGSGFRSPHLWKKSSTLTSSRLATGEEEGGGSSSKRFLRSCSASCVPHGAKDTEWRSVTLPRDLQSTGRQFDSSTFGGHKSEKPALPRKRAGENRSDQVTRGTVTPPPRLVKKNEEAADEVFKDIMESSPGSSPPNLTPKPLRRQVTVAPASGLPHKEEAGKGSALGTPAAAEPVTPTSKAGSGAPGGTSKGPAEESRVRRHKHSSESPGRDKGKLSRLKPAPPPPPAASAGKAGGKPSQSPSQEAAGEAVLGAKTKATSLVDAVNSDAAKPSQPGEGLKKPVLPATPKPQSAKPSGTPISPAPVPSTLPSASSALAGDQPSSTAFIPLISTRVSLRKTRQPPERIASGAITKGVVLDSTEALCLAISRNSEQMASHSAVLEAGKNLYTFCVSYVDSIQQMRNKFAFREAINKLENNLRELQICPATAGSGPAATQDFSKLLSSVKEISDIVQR
Effect on: binding
Method: competition with immobilised ligand
Concentration: 0.1 µM
Structure (SMILES) | remaining binding
C[C@@H](NC(=O)Nc1cc2[nH]ncc2c(CO)n1)c1ccccc1 | 83.4%
Cc1ccc(-c2cnc([C@@]3(O)CC[C@H](C(=O)O)C(C)(C)C3)s2)cc1Nc1cccc(C(F)(F)F)n1 | 80.8%
Cc1cc(Nc2nccc(C)n2)cc(-c2cnc([C@@]3(O)CC[C@H](C(=O)O)C(C)(C)C3)s2)c1 | 55.1%

Study 2
Compound: Cc1ccc(NC(=O)c2ccnc(C(F)(F)F)c2)cc1-c1cc(OCCO)nc(N2CCOCC2)c1
Concentration: 1 µM
target | effect on | method | remaining binding [%]
Serine/threonine-protein kinase NLK (NLK, Homo sapiens, UniProt Q9UBE8) | binding | competition with immobilised ligand | 100
Non-receptor tyrosine-protein kinase TYK2, JH1 (TYK2, Homo sapiens, UniProt P29597) | cell-free assay | competition with immobilised ligand | 97
Tyrosine-protein kinase ABL1, phosphorylated (ABL1, Homo sapiens, UniProt P00519, E255K) | binding | competition with immobilised ligand | 93
Ankyrin repeat and protein kinase domain-containing protein 1 (ANKK1, Homo sapiens, UniProt Q8NFD2) | binding | – | 81
Serine/threonine-protein kinase SBK1 (SBK1, Homo sapiens, UniProt Q52WX2) | binding | competition with immobilised ligand | 68
Serine/threonine-protein kinase Nek7 (NEK7, Homo sapiens, UniProt Q8TDX7) | binding | – | 100

Study 3
SMILES: Cn1cnc(Cn2ccc3ccc(CNCc4[nH]c5ccccc5c4[C@H]4NC(=O)c5ccc(O)cc54)cc32)c1
Target: GTPase KRas (KRAS, Homo sapiens, UniProt P01116, G12C)
Effect on: binding
Mode: competitor
Method: NanoBRET
Cells: HEK293
Baseline: vehicle and 20 µM BI compound
concentration | time | normalized BRET
20 µM | 1 h | 0.97% and -1.27% and 0.14% and 0.16%
9.14 nM | 3 h | 103% and 104% and 98.6% and 86.1%
247 nM | 4 h | 91.6% and 99.3% and 93.6% and 91.9%
339 pM | 2 h | 105% and 106% and 92.9%

Further values, each from its own experiment
Compound | host | dose | time | endpoint | value
CC1=C(/C=C/C(C)=C/C=C/C(C)=C/C(=O)O)C(C)(C)CCC1 | NSG mouse, HuT78 xenograft | dose not given | end of study | tumour weight | 0.606 g and 0.75 g and 0.64 g and 0.649 g and 0.565 g

For quick reference, copied from above (study 2):
target | effect on | method | remaining binding [%]
Serine/threonine-protein kinase SBK1 (SBK1, Homo sapiens, UniProt Q52WX2) | binding | competition with immobilised ligand | 68
